{"data": "Assay results pooled from the literature", "note": "Every numbered part comes from another study and shows a few of its results, in no order.", "sequence of UniProt P41143 (whole entry, looked up)": "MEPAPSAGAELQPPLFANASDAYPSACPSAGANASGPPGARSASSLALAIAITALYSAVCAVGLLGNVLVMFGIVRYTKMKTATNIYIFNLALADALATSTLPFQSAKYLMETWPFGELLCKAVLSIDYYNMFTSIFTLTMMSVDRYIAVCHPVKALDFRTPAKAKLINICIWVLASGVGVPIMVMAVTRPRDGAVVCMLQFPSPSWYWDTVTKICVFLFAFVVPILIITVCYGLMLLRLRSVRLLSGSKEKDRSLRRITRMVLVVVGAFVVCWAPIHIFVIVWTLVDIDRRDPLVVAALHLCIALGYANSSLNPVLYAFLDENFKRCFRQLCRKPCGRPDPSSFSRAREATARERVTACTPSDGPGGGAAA", "sequence of UniProt P06493 (whole entry, looked up)": "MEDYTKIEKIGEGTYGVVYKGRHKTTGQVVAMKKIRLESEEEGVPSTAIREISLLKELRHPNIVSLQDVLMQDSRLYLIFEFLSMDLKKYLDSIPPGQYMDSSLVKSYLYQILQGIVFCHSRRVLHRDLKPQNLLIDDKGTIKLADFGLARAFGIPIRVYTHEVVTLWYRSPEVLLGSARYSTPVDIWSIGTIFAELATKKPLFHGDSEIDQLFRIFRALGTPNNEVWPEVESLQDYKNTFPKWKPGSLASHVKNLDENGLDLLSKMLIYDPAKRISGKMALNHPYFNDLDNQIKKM", "sequence of UniProt P28223 (whole entry, looked up)": "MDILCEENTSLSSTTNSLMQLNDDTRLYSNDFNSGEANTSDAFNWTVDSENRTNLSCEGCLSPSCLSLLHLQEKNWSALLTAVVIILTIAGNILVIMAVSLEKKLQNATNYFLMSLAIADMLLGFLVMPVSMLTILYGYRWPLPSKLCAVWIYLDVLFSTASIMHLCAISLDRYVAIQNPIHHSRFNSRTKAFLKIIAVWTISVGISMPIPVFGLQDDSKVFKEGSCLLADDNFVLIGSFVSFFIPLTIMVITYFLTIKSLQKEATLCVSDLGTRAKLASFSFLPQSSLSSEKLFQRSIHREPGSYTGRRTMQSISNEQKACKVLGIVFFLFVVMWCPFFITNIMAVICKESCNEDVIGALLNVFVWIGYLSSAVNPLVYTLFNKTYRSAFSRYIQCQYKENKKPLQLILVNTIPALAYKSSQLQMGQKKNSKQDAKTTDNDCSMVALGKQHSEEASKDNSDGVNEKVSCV"}
{"data": "Set 1", "cell line": "mouse MPNST tumor cells", "method": "high-content nuclear imaging", "item": "cell number", "tested at": "10 µM", "time": "12 h", "notes": "mean of 2 replicates", "relative to": "plate mean", "direction": "higher = more cells"}
{"SMILES": "CC(C)[C@@]1(NC(=O)[C@@H]2C[C@@H]3c4cccc5[nH]cc(c45)C[C@H]3N(C)C2)O[C@@]2(O)[C@@H]3CCCN3C(=O)[C@H](Cc3ccccc3)N2C1=O", "nuclei count [z-score]": 4.55}
{"SMILES": "CN(C)[C@@H]1C(=O)C(C(N)=O)=C(O)[C@@]2(O)C(=O)C3=C(O)c4c(O)cccc4[C@@](C)(O)[C@H]3[C@H](O)[C@@H]12", "nuclei count [z-score]": -0.0671}
{"SMILES": "Cc1ccccc1C(c1ccccc1C)N1C2CCC1CC(O)(c1ccccc1)C2 (stereo not shown)", "nuclei count [z-score]": 3.04}
{"data": "Set 2", "target": "Calcium/calmodulin-dependent protein kinase type II subunit alpha (CAMK2A, Homo sapiens, UniProt Q9UQM7)", "observed": "enzyme activity", "mode": "inhibitor", "tested at": "10 µM", "sequence of UniProt Q9UQM7 (whole entry, looked up)": "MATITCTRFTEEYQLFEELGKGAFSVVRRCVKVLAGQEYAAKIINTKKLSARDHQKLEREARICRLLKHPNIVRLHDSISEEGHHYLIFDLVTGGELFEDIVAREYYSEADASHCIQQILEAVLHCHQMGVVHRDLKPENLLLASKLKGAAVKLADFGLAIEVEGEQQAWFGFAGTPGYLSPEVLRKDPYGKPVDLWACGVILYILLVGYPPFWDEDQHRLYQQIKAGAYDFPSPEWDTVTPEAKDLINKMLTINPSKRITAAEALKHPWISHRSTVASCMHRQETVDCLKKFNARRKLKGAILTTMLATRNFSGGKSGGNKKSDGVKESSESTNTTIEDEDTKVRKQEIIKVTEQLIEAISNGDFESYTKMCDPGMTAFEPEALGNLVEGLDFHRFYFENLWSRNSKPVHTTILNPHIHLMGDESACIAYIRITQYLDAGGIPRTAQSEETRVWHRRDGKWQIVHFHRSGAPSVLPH"}
{"SMILES": "COc1cc(C(=O)O)cc(OC)c1OC", "inhibition": "0%"}
{"SMILES": "c1cc2c(cc1[C@H]1OC[C@H]3[C@@H]1CO[C@@H]3c1ccc3c(c1)OCO3)OCO2", "inhibition": "29%"}
{"SMILES": "CC(=O)C(=O)c1ccccc1", "inhibition": "-6%"}
{"SMILES": "COc1ccc2c(c[n+](C)c3c4cc5c(cc4ccc23)OCO5)c1OC", "inhibition": "-20%"}
{"data": "Single results of other studies"}
{"SMILES": "N#CN1CC[C@@H](C(=O)Nc2nc3c(s2)CN(C(=O)CN=[N+]=[N-])CC3)C1", "target": "Delta-type opioid receptor (OPRD1, Homo sapiens, UniProt P41143)", "test": "binding, radioligand binding", "setting": "10 µM", "endpoint": "inhibition", "value": "4.07%"}
{"SMILES": "COc1ccc2c(c1)/C(=C/c1cnc[nH]1)C(=O)N2", "target": "Cyclin-dependent kinase 1, with cyclin B (CDK1, Homo sapiens, UniProt P06493)", "test": "enzyme activity, inhibitor", "setting": "0.5 µM", "scale": "relative to: control", "endpoint": "remaining activity", "value": "35.9%"}
{"SMILES": "Cc1nc(N2CC[C@@H](O)C2)ncc1-c1cc(C(F)(F)F)cc2[nH]ncc12", "target": "5-hydroxytryptamine receptor 2A (HTR2A, Homo sapiens, UniProt P28223)", "test": "cell-free assay", "setting": "10 µM", "endpoint": "inhibition", "value": "-5.62%"}
